Measurements collected from several papers.
Compare with care: the assays were run in different laboratories.
Cell line: HCT-116

| Compound | assay | system | conditions | scale | quantity | value |
| --- | --- | --- | --- | --- | --- | --- |
| S=P1(C2CCCCC2)CCCCC1 | MTT | – | 72 h | baseline: IC50 HaCaT over IC50 HCT-116 | selectivity index | 1 |
| Nc1nc2nc[nH]c2c(=S)[nH]1 | clonogenic | – | 0.3125 µM, 10 days | – | surviving fraction | 0.985 |
| COc1cc(CCC[P+](c2ccccc2)(c2ccccc2)c2ccccc2)c(OC)c2c1OCO2.[I-] | SRB | – | – | – | GI50 | -6 log M |
| O=C1CCP(=S)(c2ccccc2)CC1 | ELISA, measured: IL-6 secretion | – | IC50 concentration | – | inhibition | 71.8 to 96.8% |
| COc1c(C)c2c(c(O)c1C/C=C(\C)CCC(=O)O)C(=O)OC2 | cell proliferation | colon cancer | – | – | IC50 | 562 nM |
| Nc1ncc(-c2nc(N3CCOCC3)nc(N3CCOCC3)n2)c(C(F)F)n1 | – | – | 72 h | – | GI50 | 114 nM |
| COC1=C(N)C(=O)c2nc(-c3nc(C(=O)O)c(C)c(-c4ccc(OC)c(OC)c4O)c3N)ccc2C1=O | protein SUMOylation, western blot, measured: SUMOylated proteins | – | – | – | EC50 | ~1000 nM |
| CCOP1(=O)CC=Cc2cc(N)ccc2O1 (centres unmarked) | cell proliferation, MTT | – | 100 µM, 72 h, normoxia | – | maximal inhibition | 10 to 15% |
| CN1CCN(C2(CNC3CCN(c4cccc(-c5cc6cc(F)ccc6[nH]5)c4)CC3)CCC2)CC1 | – | – | – | – | GI50 | 1190 nM |
| COc1ccc(NC(=O)Nc2ccc3c(c2)C=CCP(=O)(O)O3)cc1 | cell proliferation, MTT | – | 100 µM, 72 h, normoxia | – | maximal inhibition | 40% |
| COc1c(CCC[P+](c2ccccc2)(c2ccccc2)c2ccccc2)cc2c(c1OC)OCO2.[I-] | SRB | – | – | – | LC50 | > -4 log M |

Some of these lines once more:
| Compound | assay | system | conditions | scale | quantity | value |
| --- | --- | --- | --- | --- | --- | --- |
| COC1=C(N)C(=O)c2nc(-c3nc(C(=O)O)c(C)c(-c4ccc(OC)c(OC)c4O)c3N)ccc2C1=O | protein SUMOylation, western blot, measured: SUMOylated proteins | – | – | – | EC50 | ~1000 nM |
| S=P1(C2CCCCC2)CCCCC1 | MTT | – | 72 h | baseline: IC50 HaCaT over IC50 HCT-116 | selectivity index | 1 |
